Published values of several laboratories.

With `CN[C@@H]1[C@H](O)[C@H](NC)[C@H]2O[C@]3(O)[C@H](O[C@@H]2[C@H]1O)O[C@H](C)C[C@H]3NC(=O)Cc1ccccn1` the MIC was 2 to 4 µg/mL (Mycobacterium tuberculosis; MDR clinical isolates).
For `O=C(CN1C(=O)CSC1=O)Oc1ccc(/C=N/NC(=O)c2cccnc2)cc1Br`, the MIC was 268 to 1160 µM (Mycobacterium tuberculosis; Alamar blue; MDR 210).
With `C=CCC1=C(C(=O)O)O[C@@H]([C@H](O)[C@H](O)CO)[C@H](NC(C)=O)[C@H]1O` the EC50 was 2200 µM (Influenza A virus; viral replication; A/Paris/1170/2007 (H1N1); 72 h).
For `COc1ccc2nccc(CC[C@H]3OC[C@H](NC(=O)c4ccc(Cl)cc4)CO3)c2c1`, the MIC was 2 µg/mL (Mycobacterium tuberculosis; H37Rv rpoB S450L mutant).
For `CCOc1cc(/C=N/NC(=O)c2ccncc2)ccc1OC(=O)CN1C(=O)CSC1=O`, the MIC was 18.1 µM (Mycobacterium tuberculosis; Alamar blue; MDR 210).
With `COc1ccc2nccc(CC[C@H]3OC[C@H](NC(=O)c4ccc(Cl)c(Cl)c4)CO3)c2c1` the MIC was 0.5 µg/mL (Mycobacterium tuberculosis; H37Rv rpoB S450L mutant).
For `CN[C@@H]1[C@H](O)[C@H](NC)[C@H]2O[C@]3(O)[C@H](O[C@@H]2[C@H]1O)O[C@H](C)C[C@H]3NC(=O)Cc1ccc(F)cn1`, the MIC was 2 to 4 µg/mL (Mycobacterium tuberculosis; MDR clinical isolates).
For `O=C(CN1C(=O)CSC1=O)Oc1ccc(/C=N/NC(=S)Nc2cccc(Cl)c2)cc1Cl`, the MIC was 32.2 µM (Mycobacterium tuberculosis; Alamar blue; MDR 210).
`Oc1cc(Cn2ccnn2)ccc1Oc1ccc(Cl)cc1Cl` gave an MIC of 5 µg/mL (Mycobacterium tuberculosis; mc2 5855).
`COc1c(N2CC3CCCNC3C2)c(F)cc2c(=O)c(C(=O)OCc3cnc([N+](=O)[O-])s3)cn(C3CC3)c12` (stereo not drawn) gave an MIC of 0.25 µM (Mycobacterium tuberculosis; XDR).
`Oc1cc(CNc2ccccc2)ccc1Oc1ccc(Cl)cc1Cl` has an MIC of 10 µg/mL (Mycobacterium tuberculosis; mc2 5855).
`COc1ccc2ncc(F)c(C[C@H](O)[C@H]3OC[C@H](NCc4ccc(Cl)c(Cl)c4)CO3)c2n1` has an MIC of 0.125 µg/mL (Mycobacterium tuberculosis; H37Rv rpoB S450L mutant).
`CCOc1cc(/C=N/NC(=O)c2ccccn2)ccc1OC(=O)CN1C(=O)CSC1=O` has an MIC of 72.3 to 167 µM (Mycobacterium tuberculosis; Alamar blue; MDR 210).
The EC50 of `CC(=O)N[C@H]1[C@H]([C@H](O)[C@H](O)CO)OC(C(=O)O)=C(C/C=C/c2ccc(C)cc2)[C@@H]1O` is reported as 40 µM (Influenza A virus; viral replication; A/Paris/1170/2007 (H1N1); 72 h).
With `COc1ccc2nccc(CC[C@H]3OC[C@H](NC(=O)c4ccc(C)cc4)CO3)c2c1` the MIC was greater than 32 µg/mL (Mycobacterium tuberculosis; H37Rv rpoB S450L mutant).
`C[C@]12CC[C@H](OC(=O)C3CC3)[C@@](C)(COC(=O)C3CC3)C1C[C@H](O)[C@@]1(C)Oc3cc(-c4cccnc4)oc(=O)c3[C@H](O)C21` (stereo partly drawn) has a Kd of 0.00405 µM (Halyomorpha halys; radioligand binding).
With `CN[C@@H]1[C@H](O)[C@H](NC)[C@H]2O[C@]3(O)[C@H](O[C@@H]2[C@H]1O)O[C@H](C)C[C@H]3NC(=O)Cc1cscn1` the MIC was 2 to 4 µg/mL (Mycobacterium tuberculosis; MDR clinical isolates).
`NC(=S)N/N=C/c1ccc(OC(=O)/C=C2\SC(=O)NC2=O)cc1` has an MIC of 31.6 to 45.7 µM (Mycobacterium tuberculosis; Alamar blue; MDR 210).

Some of these lines once more:
With `COc1ccc2nccc(CC[C@H]3OC[C@H](NC(=O)c4ccc(Cl)c(Cl)c4)CO3)c2c1` the MIC was 0.5 µg/mL (Mycobacterium tuberculosis; H37Rv rpoB S450L mutant).
For `CN[C@@H]1[C@H](O)[C@H](NC)[C@H]2O[C@]3(O)[C@H](O[C@@H]2[C@H]1O)O[C@H](C)C[C@H]3NC(=O)Cc1ccc(F)cn1`, the MIC was 2 to 4 µg/mL (Mycobacterium tuberculosis; MDR clinical isolates).
For `O=C(CN1C(=O)CSC1=O)Oc1ccc(/C=N/NC(=S)Nc2cccc(Cl)c2)cc1Cl`, the MIC was 32.2 µM (Mycobacterium tuberculosis; Alamar blue; MDR 210).
